Published values of several laboratories.
Every numbered part comes from another study and shows a few of its results, in no order.

Study 1
Target: RNA binding protein fox-1 homolog 2, RRM domain, GST-SBP tag (RBFOX2, Homo sapiens, UniProt O43251-10, residues 100-194)
Technique: RNA Bind-n-Seq
Form: RNA
Medium: in vitro
Concentration: 365 nM
Setting: natural RNA segment, single round, ends assumed
Reference: no-protein control
Reading: higher = stronger binding
Measurement: RBNS enrichment (R)
All sequences stand within: GGGAGUUCUACAGUCCGACGAUC … UGGAAUUCUCGGGUGCCAA
Target sequence (chain): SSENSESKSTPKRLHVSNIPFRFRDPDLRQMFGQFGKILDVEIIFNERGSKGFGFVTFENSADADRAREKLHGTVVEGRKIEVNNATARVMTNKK
AAUACGCAGUUACAGGGUGUAGUCUGUUUAGAUUCCGUAGUUCGUGGGUAUCAGUUUCGGUAGAGGUGCAGCAUCGUGACACUUUUGCUAACAGGUACCACUUCUGAUCA: 1.1
CCAGGGGGUUAUGGCCACAGAGGGAUAGGCACAGUCUCCACCACCCUGGAGCCAAGGGUCUUUCACAUCACCUAUCCCUACAUACAUACCAAAUGGAAAAGUGGCCAUCC: 0.335
AUUUUCCAAGUAUUUCUCUUGAAACUGCCAGUGCCUGAACUGUUGGGGCCAGGAUUUUCCCUGGUCAGAUGCCAAGUAACAUGUGGUUUUCUGCCAUACUUUUCUCCAUU: 0.248
UCGAACUCCUGACCUCAGGUGAUCCGCCUGCCUCGGCCUCCCAAAGUGCUGGGAUUACAGGAGUGAGCCACUGUGCCUGGCCUAUCCCACUUGGUUUUUGACUGAAGGGG: 0.226
UCUGCCCGCUGCCCUCUGUCAUCCCAUUCAAGAUUGUGCCAUACCAGCUGAGGUUUUUCCUCUGUCUCUCUAGGAAUAGGGUCUGUUUCACAGGCCAUUUCUGUGAACCC: 0.411
GCUACGGUUCUUAAUACUGAAGUCAUGAUGUGUAUUUCCUGGAGAAAUUCCUCUUUAAAUGAACAAGUAACCACAUCUCAGGCGGCAGUGAAGUCCAGAUAGUUUUGCAG: 1.91
GCGGCCGAGGGCUUGGGAUACUGCACAGUGCUACUGUGUCCUGUGAAGGCUGGUGCACUCAGGGCUGUGGGAAGGCAGAAUCACCUCAUCCAUUUGGCCUGUGAAGGAAG: 0.97
UAAAUGCCCUGCUCUGAACACGAAGCUUAGUAUAAACUGAUGGAUAUCCCUACCUUGAAAGAAGAAAAGGUUCUUACUGCUUGGUCCUUGAUUUAUCACACAAAGCAGAA: 0.575
AGAACCAAAGCAACCACAAAUGCAUAAAUGCAUAAUUUAUGGUCUUCAACCAAGGCCACAUAAUAACCCAGUUAACUUACUCUUUAACCAGGAAUAUUAAGUUCUAUAAC: 0.686
UCAAAGUUUAAGUUAAUGUUAUAUAUUAUGUAUAAAUAUAUAUAUUCAUAAUGAGAUAUAUGUAAUGGAUAGUACAAAGUUUGGAGACUCAACAAAUGCUCUAACCUUCU: 0.697
GUGAAAUGAUAAGGGCAUUCUAUCUGCUUGCUGUGACCAGCGUGUGCACACAAACCUUAACAAGACUGCAAAUACUCCAGAAGGAAGUCAUUUAGUUAUGAACGAAAUAA: 0.887
GGGAGGGGUCCAUGACUCCGGGGAAGACGCUUCUCAACGAGGGAUGUGUGGAAAGAAAACAGAAGUGAGAAAGAAGUUACCUUGUAUUAUGUAUUUUUACUACACUUUUC: 0.639

Study 2
Target: Histone acetyltransferase KAT6A, both winged helices, GST fusion (KAT6A, Homo sapiens, UniProt Q92794, residues 1-181)
Technique: protein binding microarray
Form: double-stranded DNA, one strand shown
Medium: in vitro
Concentration: not given
Setting: 8-mer, flanks averaged, mean of 2 arrays, mostly near background
Reference: not given
Reading: higher = stronger binding
Measurement: E-score
Construct (chain): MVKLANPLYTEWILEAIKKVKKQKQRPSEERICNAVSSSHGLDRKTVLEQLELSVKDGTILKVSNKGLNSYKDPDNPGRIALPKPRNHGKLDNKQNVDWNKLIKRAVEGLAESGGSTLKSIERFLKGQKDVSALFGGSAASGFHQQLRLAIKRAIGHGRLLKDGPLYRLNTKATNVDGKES
CCTGAGCC: -0.048
ACGTGAAC: 0.00513
AATTCATA: 0.0397
CATAGCTA: -0.163
TAGTACAA: -0.0313
GAGCTGAC: -0.056
AGGGGCCA: -0.321
ACTTCTAA: -0.0498
CTACAGAC: -0.113
CCGTAGTC: 0.273
GAGAGTCC: -0.0249
CCGGCTAA: 0.216
TACGAACA: -0.00543
AAAAGATG: 0.00729
GACTTACC: 0.00239
AAGGTGCC: 0.092
GAATAGCC: -0.0459
CTAACGCC: 0.127
AACTTACC: -0.0949

Study 3
Target: Prothrombin, mature alpha-thrombin (F2, Homo sapiens, UniProt P00734)
Technique: aptamer microarray, sandwich
Form: DNA with 2'F-ANA
Medium: in vitro
Concentration: 200 nM
Setting: whole 15-mer aptamer, many near background
With: Cy3 exosite-II aptamer, 400 nM
Reading: higher = stronger binding
Measurement: mean fluorescence intensity
Sequence: GGTTGGTGTGGTTGG
2'F-ANA at 9 10 13 15: 170 a.u.
2'F-ANA at 1 2 3 6 7 8 14 15: 76.3 a.u.
2'F-ANA at 1 5 7 8 9 13 15: 53.3 a.u.
2'F-ANA at 2 6 8 9 12 13 14 15: 135 a.u.
2'F-ANA at 1 6 9 12 14 15: 66.1 a.u.
2'F-ANA at 2 5 7 8 9 10 11 14: 66.5 a.u.
2'F-ANA at 3 4 5 7 9 12 14 15: 53.3 a.u.
2'F-ANA at 3 4 8 9 10 12 13 15: 253 a.u.
2'F-ANA at 1 3 4 7 9 10 11 12 14 15: 65.8 a.u.
2'F-ANA at 2 4 7 9 10 11 13: 93.6 a.u.
2'F-ANA at 1 3 4 5 6 10 12 13 14: 47.2 a.u.
2'F-ANA at 4 5 6 10 11 12 13 15: 48.7 a.u.
2'F-ANA at 1 3 11 12 15: 476 a.u.
2'F-ANA at 1 3 4 8 11 12 13 14 15: 89.4 a.u.
2'F-ANA at 2 6 7 10 11 12 13: 146 a.u.
2'F-ANA at 4 5 6 9 12 13 14: 47 a.u.
2'F-ANA at 2 3 4 5 7 12 13: 108 a.u.
2'F-ANA at 2 5 6 7 8 13: 63.7 a.u.

Study 4
Target: Interferon regulatory factor 5, full length, phosphomimetic (IRF5, Homo sapiens, UniProt Q13568-2, residues 1-514, S451D/S453D/S456D/S462D)
Technique: protein-binding microarray
Form: double-stranded DNA, one strand shown
Medium: in vitro
Concentration: 940 nM top
Setting: 60-bp whole probe
With: salmon DNA 0.4 mg/ml
Reference: random background probes
Reading: higher = stronger binding
Measurement: fitted relative affinity
All sequences stand within: GCCTAGCAC … GTCTTGATTCGCTTGACGCTGCTG
GACGGACTGCTTCTCCTCACGTGCTAG: -0.266 z-score
TGCCCTCTAACTTCCCAATGGTGCTAG: 0.902 z-score
TTAGATTGCAGTTTCGATTAGTGCTAG: 7.18 z-score
TAAGGTCTCCTTCTCCTTTAGTGCTAG: 0.592 z-score
TAAGGACTGGGGACTGGGTTAGTGCTA: -0.394 z-score
GACGGTTTCGGTATGGGGACGTGCTAG: 12.9 z-score
TTAGGTCTCCTACTGCTCTAGTGCTAG: 0.0213 z-score
GACGGTTCCGGTTTCGAGACGTGCTAG: 5.12 z-score
GACGGTCTCCTTATCCTGAAGTGCTAG: 0.283 z-score
GACGGTCTCCTTATCCTGGCGTGCTAG: 0.502 z-score
GACGGTATCGGTTTCGGGAGGTGCTAG: 9.23 z-score
GACGGTCTCCTACTACTGACGTGCTAG: 0.127 z-score
TCATTTCTCTGCTCTTTTACTGTGCTA: 1.99 z-score
TTGGGACTGCTTTTCCTTTAGTGCTAG: -0.49 z-score
TCATGTGTGTGTATGTGACTGTGCTAG: 0.0195 z-score
TTAGGTGTCCTTTCCCTTTAGTGCTAG: 0.214 z-score
TTAGGACTGGAACTGGGTTAGTGCTAG: -0.633 z-score
TTACGTCTCCTACTGCTTTAGTGCTAG: 0.707 z-score
TTAGCTTTCGGGTATCGATTAGTGCTA: 5.73 z-score

Study 5
Target: RING finger protein unkempt homolog, zinc fingers 1-6, GST-SBP tag (UNK, Homo sapiens, UniProt Q9C0B0, residues 30-357)
Technique: RNA Bind-n-Seq
Form: RNA
Medium: in vitro
Concentration: not given
Setting: RNA with constant flanks, ends assumed
Reference: input RNA pool
Reading: higher = stronger binding
Measurement: bound/input enrichment
All sequences stand within: GGGAGUUCUACAGUCCGACGAUC … CAACAGAGGAUUGAGCAUCA
Construct (chain): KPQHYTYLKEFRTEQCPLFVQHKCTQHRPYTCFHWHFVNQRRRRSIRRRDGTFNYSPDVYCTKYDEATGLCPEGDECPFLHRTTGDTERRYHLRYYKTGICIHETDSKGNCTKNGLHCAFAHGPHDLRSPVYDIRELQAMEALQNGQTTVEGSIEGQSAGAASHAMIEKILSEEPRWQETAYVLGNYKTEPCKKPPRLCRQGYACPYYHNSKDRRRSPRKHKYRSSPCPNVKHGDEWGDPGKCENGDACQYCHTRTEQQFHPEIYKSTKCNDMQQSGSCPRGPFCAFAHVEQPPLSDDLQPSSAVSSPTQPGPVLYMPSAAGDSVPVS
GGCCAGGAACAGUCUUCACGGGGACAAAGAAUUUUAUCUAUUCCAAUUUGGCCCCCAAACCCCGGCAUCUCUCAGAACUGUGUUUAUGAGGCACAGCAGGUUCCCAAAGUAGAAAAAACA: 0.642 ratio
AGACUUUCCAGCUCAGAGAGUGAAGAGAGCUAUUUGUCCAAGAACUCUGAAGAUGAUGAGCCCGCUAAAGAAUCAAAGCGGUCAGUUCGAAAGCGGGGCCGAAGCACAGACGAGUAUUCA: 0.184 ratio
UGGCGUUUCAGCAACAUGAAACAGUGGAAUGUCAACUGGGAAAUCAAAAUGGUCACCGCCGAGUUUGCAGAUGAAGUACGAUUGUCCUUCAUUUGUACUGAAGUAGAUUGCAAAGUGGUU: 0.26 ratio
CCAAAACAUGUGAUAUCCCUUUAACCUGUGCACAGUCUGGAGGCAGUUUUAUUGAGUGAGCCGUUGAGUGAGAGAACAAAAUGCCCAGCAAAACUUCUGGCCUCCACAGUUUGCUGAUGC: 0.18 ratio
UCUUUUUUUGCUGGGGAUAAAAACGAAGCACAUAAACUAAAGGAGGACUUCCGGCUACACUUCCGGAACAUUUCAAGAAUCAUGGACUGUGUUGGCUGCUUCAAGUGCCGCCUGUGGGGC: 0.367 ratio
CGUGGAGAUGCAGACCAGGCCAGUAACAUUUUGGCCAGCUUUGGUCUGUCUGCUAGAGACUCCGAUGAACUGAGUCGUUAUCCAGAGGACAAGAUUACUCCUGAGAAUUUGCCCCAAAUC: 0.0793 ratio
GAAGAAGCCUGCUUCACUCUCCAGUACCUAAACAAAUUGUCCAUGAAACCAGAACCUCUGUUCCGAAGUGUAGGCAAUACUAUUGAUCCUGUCAUUCUUUUCCAAAAAAUGGGAGUAGGU: 0.238 ratio
CGAGCUGGAUCCAGAGUUGCAUAUAGACCAAUUUCUGCAUCAGUGUUAUCUCGGCCAGAGACCCGGACUGGAGAGGGCUCUACAGUUUUUAAUGGGGCCCAGAAUGGUGUGUGUCAGCUG: 0.272 ratio
AAGACAUCACUCAUGAACCAGUAUGUGAAUAAGAAAUUCAGCAAUCAGUACAAAGCCACAACCGGAGCUGACUUUCUGACCAAGGAGGUGAUGGUGGAUGACAGGCUAGUCACAAUGCAG: 0.202 ratio
CUGUGUUAUAUGUCAUAUUUAGCGUUUUUAUAUAUGACCUUUGAUUUCUGUUGUUUGUAUUUCCGCACAGUGUAUGCACCUUCAUUUAAAUACAUCUGUGUGCAUACAGAUACGCAUAUA: 1.71 ratio
GACCCAGGAAGCAAAGACCCAGAAGAAGAUUACCCCAAGUUUGGACUUUUGGAUCAGGAUCUCCGUAAUAUUGGUCCUGCUUAUGACAACCAGAAACAAAGCAGUGCUGUGUCUGCUAGU: 0.167 ratio
